{"data": "Measurements of several laboratories", "note": "Protocols differ between the studies behind these lines. ± marks the error that the study gave."}
{"SMILES": "CSCC[C@H](NC(=O)[C@H](Cc1ccccc1)NC(=O)CNC(=O)[C@@H](C)NC(=O)[C@@H](N)Cc1ccc(O)cc1)C(=O)N1CCC[C@H]1C(=O)N[C@@H](CC(C)C)C(=O)N[C@@H](Cc1c[nH]c2ccccc12)C(=O)NCc1cc(C(F)(F)F)cc(C(F)(F)F)c1", "test system": "rat plasma", "setting": "50 µg/mL, 37 °C", "half-life [h]": 4.8}
{"SMILES": "C=C1NC(=O)c2csc(n2)[C@H]([C@@H](C)O)NC(=O)[C@H](C)NC(=O)[C@H]([C@@H](C)CC)NC(=O)[C@H](CCCNC(=N)N)NC(=O)CNC(=O)[C@H](CCCNC(=N)N)NC(=O)[C@H]([C@@H](C)O)NC(=O)[C@H](CCCNC(=N)N)NC(=O)[C@H]([C@@H](C)CC)NC(=O)[C@H]([C@@H](C)O)NC(=O)[C@H](Cc2c[nH]c3ccccc23)NC(=O)c2ccc(-c3nc(C(=O)OC)cs3)nc2-c2csc1n2", "assay": "LC-MS", "test system": "human serum", "setting": "pH 7.6, 37 °C", "half-life [h]": "1.8 ± 0.1"}
{"SMILES": "O=c1[nH]c2ccccc2c(=O)o1", "assay": "chemical stability, HPLC-MS", "test system": "borate buffered saline", "setting": "pH 10.2, no N-acetyl-lysine", "half-life [h]": 0.3}
{"SMILES": "CC[C@H](C)[C@@H]1NC(=O)[C@H](CO)NC(=O)C(C)(CCCCN)NC(=O)[C@@H]2CSSC[C@@H](C(=O)N[C@@H](Cc3ccc(O)cc3)C(N)=O)NC(=O)[C@H](CCCCN)NC(=O)[C@@H]3CSSC[C@H](NC(=O)[C@H](CCCNC(=N)N)NC(=O)C(C)(CC(C)C)NC(=O)[C@H](CC(=O)O)NC(=O)[C@H](CC(=O)O)NC(=O)[C@H](CCC(=O)O)NC(=O)[C@H](CC(N)=O)NC(=O)[C@H](Cc4c[nH]c5ccccc45)NC(=O)[C@@H]4CCCN4C(=O)CNC(=O)[C@H](CC(N)=O)NC(=O)[C@@H](NC(=O)CNC(=O)[C@H](Cc4ccccc4)NC(=O)CN)CSSC[C@H](NC(=O)[C@H](Cc4ccc(O)cc4)NC(=O)CNC(=O)CNC(=O)[C@H](CCCCN)NC(=O)[C@H](Cc4ccc(O)cc4)NC(=O)CNC(=O)[C@H](CCCCN)NC1=O)C(=O)N[C@@H](C)C(=O)N[C@@H](CCCCN)C(=O)NCC(=O)NCC(=O)N[C@@H](Cc1ccccc1)C(=O)N[C@@H](C(C)C)C(=O)N3)C(=O)N[C@@H](Cc1c[nH]cn1)C(=O)NC(C)(C)C(=O)N[C@@H](Cc1c[nH]cn1)C(=O)N2 (some centres unmarked)", "assay": "HPLC", "test system": "trypsin digestion", "setting": "13.2 µM, pH 8.5, room temperature, with: trypsin 0.9 µM", "half-life [h]": 0.6}
{"SMILES": "CC[C@H](C)[C@H](NC(=O)[C@H](NC(=O)[C@@H](CCC(N)=O)NC(=O)[C@@H](N)COC(=O)[C@@H](NC(=O)[C@@H](Cc1ccccc1)NC)[C@@H](C)CC)[C@@H](C)CC)C(=O)N[C@@H](CO)C(=O)N[C@H]1C(=O)N[C@@H](C)C(=O)N[C@@H](C2CCCCC2)C(=O)N[C@@H]([C@@H](C)CC)C(=O)O[C@H]1C", "assay": "conversion to teixobactin", "test system": "phosphate buffer", "setting": "pH 7.4, room temperature", "half-life [h]": 0.5}
{"SMILES": "CC[C@H](C)[C@H](NC(=O)[C@H](CCC(N)=O)NC(=O)[C@H](Cc1c[nH]cn1)NC(=O)[C@H](C)NC(=O)[C@H](CC(C)C)NC(=O)[C@H](CCCCN)NC(=O)[C@H](CCC(N)=O)NC(=O)[C@@H](NC(=O)[C@@H](NC(=O)[C@@H]1CSSC[C@H](NC(=O)CNC(=O)[C@H](Cc2ccccc2)NC(=O)[C@H](CO)NC(=O)[C@H](CCCNC(=N)N)NC(=O)[C@H](CC(C)C)NC(=O)CNC(=O)[C@H](CCC(N)=O)NC(=O)[C@H](Cc2ccccc2)NC(=O)[C@H](CC(N)=O)NC(=O)[C@H](CC(N)=O)NC(=O)[C@H](CCSC)NC(=O)[C@H](CO)NC(=O)[C@H](CCC(N)=O)NC(=O)[C@H](CCCNC(=N)N)NC(=O)[C@@H](N)Cc2ccc(O)cc2)C(=O)N[C@@H](CCCNC(=N)N)C(=O)N[C@@H](Cc2ccccc2)C(=O)NCC(=O)N[C@@H]([C@@H](C)O)C(=O)N1)[C@@H](C)O)C(C)C)C(=O)N[C@@H](Cc1ccc(O)cc1)C(=O)N[C@@H](CCC(N)=O)C(=O)N[C@@H](Cc1ccccc1)C(=O)N[C@H](C(=O)N[C@@H](CC(=O)O)C(=O)N[C@@H](CCCCN)C(=O)N[C@@H](CC(=O)O)C(=O)N[C@@H](CCCCN)C(=O)N[C@@H](CC(=O)O)C(=O)N[C@@H](CC(N)=O)C(=O)N[C@H](C(=O)N[C@@H](C)C(=O)N1CCC[C@H]1C(=O)N[C@@H](CCCNC(=N)N)C(=O)N[C@@H](CO)C(=O)N[C@@H](CCCCN)C(=O)N[C@H](C(=O)N[C@@H](CO)C(=O)N1CCC[C@H]1C(=O)N[C@@H](CCC(N)=O)C(=O)NCC(=O)N[C@@H](Cc1ccc(O)cc1)C(=O)NCC(=O)O)[C@@H](C)CC)C(C)C)[C@@H](C)O", "test system": "diluted human serum", "setting": "1 ng/mL, ambient temperature", "half-life [h]": 0.26}
{"SMILES": "CC[C@H](C)[C@@H]1NC(=O)[C@H](Cc2ccc(O)cc2)NC(=O)[C@@H](N)CSCSC[C@@H](C(=O)N2CCC[C@H]2C(=O)N[C@@H](CC(C)C)C(=O)NCC(N)=O)NC(=O)[C@H](CC(N)=O)NC(=O)[C@H](CCC(N)=O)NC1=O", "test system": "phosphate buffer", "setting": "0.1 mg/mL, pH 7.0, 40 °C", "half-life [h]": 806}
{"SMILES": "CCOC(=O)Nc1ccc2c(c1)CN1C(=S)N(c3ccc(C#N)c(C(F)(F)F)c3)C(=O)C1C2 (centres unmarked)", "setting": "oral, 5 mg/kg", "half-life [h]": "15.3 ± 1.33"}
{"SMILES": "CC[C@H](C)[C@@H]1NC(=O)[C@H](CO)NC(=O)[C@H](CCCCN)NC(=O)[C@@H]2CSSC[C@@H](C(=O)N[C@@H](Cc3ccc(O)cc3)C(N)=O)NC(=O)[C@H](CCCCN)NC(=O)[C@@H]3CSSC[C@H](NC(=O)[C@H](CCCNC(=N)N)NC(=O)[C@H](CC(C)C)NC(=O)[C@H](CC(=O)O)NC(=O)[C@H](CC(=O)O)NC(=O)[C@H](CCC(=O)O)NC(=O)[C@H](CC(N)=O)NC(=O)[C@H](Cc4c[nH]c5ccccc45)NC(=O)[C@@H]4CCCN4C(=O)CNC(=O)[C@H](CC(N)=O)NC(=O)[C@@H](NC(=O)CNC(=O)[C@H](Cc4ccccc4)NC(=O)CN)CSSC[C@H](NC(=O)[C@H](Cc4ccc(O)cc4)NC(=O)CNC(=O)CNC(=O)[C@H](CCCCN)NC(=O)[C@H](Cc4ccc(O)cc4)NC(=O)CNC(=O)[C@H](CCCCN)NC1=O)C(=O)N[C@@H](C)C(=O)N[C@@H](CCCCN)C(=O)NCC(=O)NCC(=O)N[C@@H](Cc1ccccc1)C(=O)N[C@@H](C(C)C)C(=O)N3)C(=O)N[C@@H](Cc1c[nH]cn1)C(=O)N[C@@H](CC(N)=O)C(=O)N[C@@H](Cc1c[nH]cn1)C(=O)N2", "assay": "HPLC", "test system": "trypsin digestion", "setting": "13.2 µM, pH 8.5, room temperature, with: trypsin 0.9 µM", "half-life [h]": 1.3}
{"SMILES": "CC[C@H](C)[C@H](NC(=O)[C@H](CCCN)NC(=O)[C@H](CCCNC(=N)N)NC(=O)[C@@H]1CCCN1C(=O)[C@@H]1CCCN1C(=O)[C@H](CCCNC(=N)N)NC(=O)[C@@H]1CCCN1C(=O)[C@H](CCCNC(=N)N)NC(=O)[C@@H]1CCCN1C(=O)[C@H](CC(C)C)NC(=O)[C@H](Cc1ccc(O)cc1)NC(=O)[C@@H]1CCCN1C(=O)[C@@H]1CCCN1C(=O)[C@H](CCCCN)NC(=O)[C@H](CC(=O)O)NC(=O)[C@@H](N)C(C)C)C(=O)N[C@@H](Cc1ccc(O)cc1)C(=O)N[C@@H](CC(N)=O)C(=O)N[C@@H](CCCN)C(N)=O", "test system": "Escherichia coli BW25113 lysate", "setting": "31.5 µM", "half-life [h]": "~1.33"}
{"SMILES": "CC(C)C[C@H](NC(=O)[C@@H]1CCCN1C(=O)[C@H]1CSSC[C@@H](NC(=O)[C@@H](N)Cc2ccc(O)cc2)C(=O)NCC(=O)N[C@@H](Cc2ccccc2)C(=O)N1)C(=O)N[C@@H](Cc1c[nH]c2ccccc12)C(=O)NCc1cc(C(F)(F)F)cc(C(F)(F)F)c1", "test system": "rat plasma", "setting": "50 µg/mL, 37 °C", "half-life [h]": 4.9}
{"SMILES": "O=C(O)c1ccc(-c2nc(-c3ccccc3Cl)c3sccn23)cc1", "test system": "human liver microsomes", "setting": "1 µM", "half-life [h]": 1}
{"SMILES": "N[C@@H](Cc1ccc(O)cc1)C(=O)N[C@@H]1CSCc2ccccc2CSC[C@@H](NC(=O)[C@@H](N)Cc2ccc(O)cc2)C(=O)NCC(=O)N[C@@H](Cc2ccc(F)cc2)C(=O)NNC(=O)[C@H](Cc2ccc(F)cc2)NC(=O)CNC1=O", "assay": "LC-MS", "test system": "human plasma", "setting": "5 µM, 37 °C", "half-life [h]": "> 1"}
{"SMILES": "CC[C@H](C)[C@H](NC(=O)[C@@H](Cc1ccccc1)NC)C(=O)OC[C@H](N)C(=O)N[C@H](CCC(N)=O)C(=O)N[C@@H](C(=O)N[C@H](C(=O)OC[C@H](N)C(=O)N[C@H]1C(=O)N[C@@H](C)C(=O)N[C@@H](C2CCCCC2)C(=O)N[C@@H]([C@@H](C)CC)C(=O)O[C@H]1C)[C@@H](C)CC)[C@@H](C)CC", "assay": "conversion to teixobactin", "test system": "phosphate buffer", "setting": "pH 7.4, room temperature", "half-life [h]": 0.167}
{"SMILES": "CC(C)C(=O)OC[C@H]1O[C@@](C#N)(n2ccc(N)nc2=O)[C@H](O)[C@@H]1O", "test system": "hamster plasma", "setting": "conversion to CNC metabolite", "half-life [h]": "< 0.0833"}
{"SMILES": "O=C(NCc1ccc(Cl)cn1)C(=O)C(Cc1ccccc1)NC(=O)C1CC(F)CN1C(=O)C(NC(=O)C1CCC(F)(F)CC1)C1CCCCC1 (centres unmarked)", "setting": "pH 7.4", "half-life [h]": "> 9"}
{"SMILES": "C=C1NC(=O)CNC(=O)[C@H](CCCNC(=N)N)NC(=O)[C@H](Cc2ccc(O)cc2)NC(=O)[C@H](CC(C)C)NC(=O)[C@H](CO)NC(=O)[C@H](CCCCN)NC(=O)[C@H](CC(N)=O)NC(=O)CNC(=O)[C@H](Cc2ccccc2)NC(=O)[C@H](Cc2c[nH]c3ccccc23)NC(=O)[C@H](Cc2c[nH]c3ccccc23)NC(=O)c2ccc(-c3nc(C(=O)OC)cs3)nc2-c2csc1n2", "assay": "LC-MS", "test system": "human serum", "setting": "pH 7.6, 37 °C", "half-life [h]": "0.61 ± 0.02"}
{"note": "For quick reference, copied from above:"}
{"SMILES": "CC[C@H](C)[C@H](NC(=O)[C@H](NC(=O)[C@@H](CCC(N)=O)NC(=O)[C@@H](N)COC(=O)[C@@H](NC(=O)[C@@H](Cc1ccccc1)NC)[C@@H](C)CC)[C@@H](C)CC)C(=O)N[C@@H](CO)C(=O)N[C@H]1C(=O)N[C@@H](C)C(=O)N[C@@H](C2CCCCC2)C(=O)N[C@@H]([C@@H](C)CC)C(=O)O[C@H]1C", "assay": "conversion to teixobactin", "test system": "phosphate buffer", "setting": "pH 7.4, room temperature", "half-life [h]": 0.5}
